{"data": "Measured values pooled from the literature", "note": "Protocols differ between the studies behind these lines. Values joined by “and” are separate records of one study, mostly repeats; a detail may differ. ± gives the spread as reported."}
{"Compound": "Cc1cc(OCCOCCn2ccnc2)cc(C(C)C)c1", "assay": "locomotor activity in dark", "system": "zebrafish larvae, 7 dpf", "conditions": "10 µM, minute 3, dark phase", "endpoint": "larval motion", "value": "0.8 ± 0.5 pixels/frame"}
{"Compound": "CN(C)C(=O)c1ccnc(N2Cc3cn(Cc4ccc(F)cc4F)nc3C2)n1", "system": "mouse, hippocampal slice, Schaffer collaterals", "conditions": "dose not given, interstimulus interval 50", "scale": "baseline: second over first response", "endpoint": "paired-pulse ratio", "value": "1.61 and 1.59 and 1.67 and 1.73 and 1.66 and 1.47 and 1.81"}
{"Compound": "CCc1cc(OCCOCCN(C)C)ccc1Cl", "system": "zebrafish larvae, 7 dpf", "conditions": "10 µM, minute 6", "endpoint": "larval motion", "value": "9.2 ± 1.4 pixels/frame"}
{"Compound": "O=C(CCCCCCc1ccccc1)c1ncc(-c2ccc(CBr)cn2)o1", "system": "mouse, chronic constriction injury, contralateral paw", "conditions": "i.p., 30 mg/kg", "endpoint": "cold allodynia", "value": "no effect"}
{"Compound": "Cc1ccc(NC(=O)CCN2CCCCCC2)cc1C", "system": "zebrafish larvae, 7 dpf", "conditions": "10 µM, minute 4", "endpoint": "larval motion", "value": "8.2 ± 1.4 pixels/frame"}
{"Compound": "CN1CCC[C@]1(C)/C=C/S(=O)(=O)NC(=O)Nc1c2c(cc3c1CCC3)CCC2", "system": "human, whole blood ex vivo", "conditions": "12.5 mg twice daily, day 14, 3 h, multiple ascending dose, with: LPS and ATP", "endpoint": "IL-18 inhibition", "value": "107%"}
{"Compound": "C[C@@H](Nc1c(-c2c(F)cc(C#N)cc2F)c(Cl)nc2ncnn12)C(C)(C)C", "system": "male PS19 tau transgenic mice, brain", "conditions": "intraperitoneal, 3 mg/kg twice weekly, 3 months", "scale": "baseline: vehicle", "endpoint": "GFAP astrocytic staining", "value": "decreased"}
{"Compound": "CCC(=O)N[C@@H](C)C(=O)OCC(=O)N[C@@H](C)C(=O)O", "system": "water", "conditions": "pH 4, 65 °C", "endpoint": "chain scission rate constant", "value": "0.0074 h⁻¹"}
{"Compound": "COC1CN([C@H]2CC[C@H]([C@@]3(C)Oc4c(Cl)cc(C(=O)NCc5c(SC)cc(C)[nH]c5=O)c(C)c4O3)CC2)C1", "assay": "RNA-seq, item: FAM110C", "system": "human, whole blood", "conditions": "dose not given, 24 h", "scale": "baseline: pretreatment baseline", "endpoint": "log2 fold change", "value": 2.75}
{"Compound": "COc1ccccc1C(C[N+](=O)[O-])c1c(-c2ccccc2)[nH]c2ccccc12 (stereo not shown)", "assay": "mechanical allodynia, von Frey", "system": "mice, chronic constriction injury", "conditions": "dose not given, 6 h, highest dose", "endpoint": "maximal possible effect", "value": "80%"}
{"Compound": "Cc1cc(C(C)(C)C)ccc1OCCOCCN(C)C", "assay": "locomotor activity in dark", "system": "zebrafish larvae, 7 dpf", "conditions": "10 µM, minute 5, dark phase", "endpoint": "larval motion", "value": "11 ± 1 pixels/frame"}
{"Compound": "COc1cc(O)ccc1CCC(c1ccc(O)cc1)c1cc2c(c(C)c1O)OC(c1ccc(O)cc1)CC2 (mixture of isomers)", "system": "human blood", "conditions": "30 µM, with: A23187", "endpoint": "14-HDHA level", "value": "793 ± 223 pg/mL"}
{"Compound": "COc1ccccc1-c1ccncc1C(=O)Nc1nnc(OCc2ccc(Cl)cc2)s1", "system": "Brca1 Δ11/Δ11 Polq-/- MEFs, Mus musculus", "conditions": "5 µM, average of runs", "scale": "baseline: 0 µM", "endpoint": "colony survival", "value": "86.3%"}
{"Compound": "C[C@@H]1CN(c2ccnc(C(=O)N[C@H]3C[C@@H]3c3ccccc3)c2)CC[C@@H]1O", "system": "female heterozygous SLC6A8 P549L mice, right cortex", "conditions": "oral, 30 mg/kg twice daily, 8 h", "endpoint": "creatine concentration", "value": "1260 µg/mL and 1000 µg/mL and 1200 µg/mL"}
{"Compound": "CC(=O)[O-].O.O.O.O.[Mn+2].[O-]c1ccc(Br)cc1C=NCCN1CCOCC1", "assay": "nitric oxide scavenging", "conditions": "200 µM", "endpoint": "inhibition", "value": "39.9%"}
{"Compound": "Cc1cn(CC(=O)N(CC(=O)N[C@H]2CCC[C@@H]2N(CC(=O)N[C@H]2COC[C@@H]2N(CC(=O)N[C@H]2COC[C@@H]2N(CC(=O)N[C@H]2COC[C@@H]2N(CC(=O)NCCOCCOCC(N)=O)C(=O)Cn2cnc3c(N)ncnc32)C(=O)Cn2cc(C)c(=O)[nH]c2=O)C(=O)Cn2cnc3c(N)ncnc32)C(=O)Cn2cnc3c(=O)[nH]c(N)nc32)[C@H]2CCC[C@@H]2NC(=O)CN(C(=O)Cn2cnc3c(=O)[nH]c(N)nc32)[C@H]2CCC[C@@H]2NC(=O)CN(C(=O)Cn2cc(C)c(=O)[nH]c2=O)[C@H]2COC[C@@H]2NC(=O)CN(C(=O)Cn2cnc3c(N)ncnc32)[C@H]2COC[C@@H]2NC(=O)CN(C(=O)Cn2cnc3c(=O)[nH]c(N)nc32)[C@H]2COC[C@@H]2N)c(=O)[nH]c1=O", "assay": "UV melting", "system": "RNA duplex with T·U mismatch", "conditions": "pH 7.2, 1 µM each strand", "endpoint": "Tm", "value": "60.2 °C"}
{"Compound": "O=C(CCN1CCN(C/C=C/c2ccccc2)CC1)Nc1ccccc1F", "system": "zebrafish larvae, 7 dpf", "conditions": "10 µM, minute 6", "endpoint": "larval motion", "value": "8.3 ± 2.1 pixels/frame"}
{"Compound": "Cc1cnc2nc1Nc1cccc(c1)COC/C=C/COCc1cc(ccc1OCCN1CCOCC1)N2", "system": "BALB/c mice rhEPO-induced polycythemia, spleen", "conditions": "100 mg/kg", "endpoint": "CD71/Ter119 cells", "value": "15.1% and 14.6% and 13.6% and 13.4% and 11.5% and 11.6%"}
{"Compound": "COc1cccc(OCC(O)CN2CCN(c3ccccc3OC)CC2)c1 (stereo not shown)", "system": "zebrafish larvae, 7 dpf", "conditions": "10 µM, minute 6", "endpoint": "larval motion", "value": "4.3 ± 1.8 pixels/frame"}
{"Compound": "Cc1cn(CC(=O)N(CC(=O)N[C@H]2COC[C@@H]2N(CC(=O)NCCOCCOCC(N)=O)C(=O)Cn2cnc3c(N)ncnc32)[C@H]2COC[C@@H]2NC(=O)CN(C(=O)Cn2cnc3c(N)ncnc32)[C@H]2COC[C@@H]2NC(=O)CN(C(=O)Cn2cnc3c(=O)[nH]c(N)nc32)[C@H]2COC[C@@H]2NC(=O)CN(C(=O)Cn2cc(C)c(=O)[nH]c2=O)[C@H]2COC[C@@H]2NC(=O)CN(C(=O)Cn2cnc3c(=O)[nH]c(N)nc32)[C@H]2COC[C@@H]2NC(=O)CN(C(=O)Cn2cc(C)c(=O)[nH]c2=O)[C@H]2COC[C@@H]2NC(=O)CN(C(=O)Cn2cnc3c(N)ncnc32)[C@H]2COC[C@@H]2NC(=O)CN(C(=O)Cn2cnc3c(=O)[nH]c(N)nc32)[C@H]2COC[C@@H]2N)c(=O)[nH]c1=O", "assay": "UV melting", "system": "DNA duplex with T·T mismatch", "conditions": "pH 7.2, 1 µM each strand", "endpoint": "Tm", "value": "58.2 °C"}
{"Compound": "CN(C)CCOCCOc1ccc(Cl)c(Cl)c1", "assay": "locomotor activity in dark", "system": "zebrafish larvae, 7 dpf", "conditions": "10 µM, minute 3, dark phase", "endpoint": "larval motion", "value": "0.5 ± 0.3 pixels/frame"}
{"Compound": "COc1ccc(C(=O)CCc2cc(C(CCc3ccc(O)cc3OC)c3ccc(O)cc3)c(O)cc2OC)cc1 (racemic)", "system": "human blood", "conditions": "0.3 µM, with: A23187", "endpoint": "14-HDHA level", "value": "660 ± 170 pg/mL"}
